# Published values gathered from unrelated publications.
# Every numbered part comes from another study and shows a few of its results, in no order.
# Sequence of UniProt Q8WTQ7 (whole entry, looked up): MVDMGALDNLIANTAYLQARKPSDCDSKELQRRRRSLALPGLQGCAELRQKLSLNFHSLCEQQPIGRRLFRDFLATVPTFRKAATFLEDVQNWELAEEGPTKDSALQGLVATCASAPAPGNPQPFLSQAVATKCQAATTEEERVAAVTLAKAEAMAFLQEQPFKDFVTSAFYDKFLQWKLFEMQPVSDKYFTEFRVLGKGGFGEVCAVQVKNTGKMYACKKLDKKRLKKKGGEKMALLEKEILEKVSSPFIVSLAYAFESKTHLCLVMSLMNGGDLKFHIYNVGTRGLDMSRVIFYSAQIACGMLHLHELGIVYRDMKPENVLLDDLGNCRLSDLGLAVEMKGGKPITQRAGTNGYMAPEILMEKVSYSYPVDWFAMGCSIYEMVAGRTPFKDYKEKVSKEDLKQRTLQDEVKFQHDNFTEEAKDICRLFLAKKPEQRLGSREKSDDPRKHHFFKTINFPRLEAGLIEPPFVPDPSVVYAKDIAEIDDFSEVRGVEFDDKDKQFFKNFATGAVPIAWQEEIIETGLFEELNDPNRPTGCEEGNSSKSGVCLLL
# Sequence of UniProt P78368 (whole entry, looked up): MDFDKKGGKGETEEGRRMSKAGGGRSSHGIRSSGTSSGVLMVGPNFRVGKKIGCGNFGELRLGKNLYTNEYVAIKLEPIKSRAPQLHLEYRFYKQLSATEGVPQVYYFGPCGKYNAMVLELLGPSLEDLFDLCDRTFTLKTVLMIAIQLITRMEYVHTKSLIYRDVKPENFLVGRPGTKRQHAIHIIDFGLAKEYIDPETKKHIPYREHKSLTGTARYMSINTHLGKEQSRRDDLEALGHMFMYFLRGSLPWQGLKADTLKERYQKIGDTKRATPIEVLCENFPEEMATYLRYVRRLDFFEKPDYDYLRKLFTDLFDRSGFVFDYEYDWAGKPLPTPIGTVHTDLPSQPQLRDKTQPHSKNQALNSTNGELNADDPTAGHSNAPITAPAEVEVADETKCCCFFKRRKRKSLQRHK
# Sequence of UniProt P27361 (whole entry, looked up): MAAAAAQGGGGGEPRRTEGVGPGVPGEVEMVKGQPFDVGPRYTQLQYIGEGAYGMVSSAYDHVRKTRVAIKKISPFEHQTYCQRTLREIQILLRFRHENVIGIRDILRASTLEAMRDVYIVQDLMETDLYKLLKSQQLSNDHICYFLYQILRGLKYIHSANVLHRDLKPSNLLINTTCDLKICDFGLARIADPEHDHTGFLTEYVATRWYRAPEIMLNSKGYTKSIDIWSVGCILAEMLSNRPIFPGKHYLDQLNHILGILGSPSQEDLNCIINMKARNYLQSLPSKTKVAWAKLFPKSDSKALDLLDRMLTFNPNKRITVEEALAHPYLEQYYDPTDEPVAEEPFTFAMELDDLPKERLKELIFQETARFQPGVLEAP
# Sequence of UniProt Q9UHD2 (whole entry, looked up): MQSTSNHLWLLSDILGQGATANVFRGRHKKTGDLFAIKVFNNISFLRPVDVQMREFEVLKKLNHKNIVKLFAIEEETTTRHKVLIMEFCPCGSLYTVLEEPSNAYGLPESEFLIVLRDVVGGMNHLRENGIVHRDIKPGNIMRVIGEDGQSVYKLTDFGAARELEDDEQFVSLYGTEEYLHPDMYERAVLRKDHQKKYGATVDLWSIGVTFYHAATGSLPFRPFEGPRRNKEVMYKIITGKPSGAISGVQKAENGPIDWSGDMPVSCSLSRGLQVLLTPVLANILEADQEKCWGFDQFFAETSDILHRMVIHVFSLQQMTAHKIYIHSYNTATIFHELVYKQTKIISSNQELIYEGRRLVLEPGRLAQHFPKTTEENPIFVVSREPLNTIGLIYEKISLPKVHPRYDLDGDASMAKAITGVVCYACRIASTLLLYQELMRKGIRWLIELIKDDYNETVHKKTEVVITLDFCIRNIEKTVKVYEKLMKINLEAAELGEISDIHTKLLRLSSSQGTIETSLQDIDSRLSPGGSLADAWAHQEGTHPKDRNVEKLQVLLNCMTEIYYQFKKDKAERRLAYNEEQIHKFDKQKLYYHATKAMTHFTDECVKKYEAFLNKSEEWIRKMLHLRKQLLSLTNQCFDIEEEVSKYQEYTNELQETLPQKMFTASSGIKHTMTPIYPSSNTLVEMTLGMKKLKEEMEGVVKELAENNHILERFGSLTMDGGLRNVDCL
# Sequence of UniProt P11362 (whole entry, looked up): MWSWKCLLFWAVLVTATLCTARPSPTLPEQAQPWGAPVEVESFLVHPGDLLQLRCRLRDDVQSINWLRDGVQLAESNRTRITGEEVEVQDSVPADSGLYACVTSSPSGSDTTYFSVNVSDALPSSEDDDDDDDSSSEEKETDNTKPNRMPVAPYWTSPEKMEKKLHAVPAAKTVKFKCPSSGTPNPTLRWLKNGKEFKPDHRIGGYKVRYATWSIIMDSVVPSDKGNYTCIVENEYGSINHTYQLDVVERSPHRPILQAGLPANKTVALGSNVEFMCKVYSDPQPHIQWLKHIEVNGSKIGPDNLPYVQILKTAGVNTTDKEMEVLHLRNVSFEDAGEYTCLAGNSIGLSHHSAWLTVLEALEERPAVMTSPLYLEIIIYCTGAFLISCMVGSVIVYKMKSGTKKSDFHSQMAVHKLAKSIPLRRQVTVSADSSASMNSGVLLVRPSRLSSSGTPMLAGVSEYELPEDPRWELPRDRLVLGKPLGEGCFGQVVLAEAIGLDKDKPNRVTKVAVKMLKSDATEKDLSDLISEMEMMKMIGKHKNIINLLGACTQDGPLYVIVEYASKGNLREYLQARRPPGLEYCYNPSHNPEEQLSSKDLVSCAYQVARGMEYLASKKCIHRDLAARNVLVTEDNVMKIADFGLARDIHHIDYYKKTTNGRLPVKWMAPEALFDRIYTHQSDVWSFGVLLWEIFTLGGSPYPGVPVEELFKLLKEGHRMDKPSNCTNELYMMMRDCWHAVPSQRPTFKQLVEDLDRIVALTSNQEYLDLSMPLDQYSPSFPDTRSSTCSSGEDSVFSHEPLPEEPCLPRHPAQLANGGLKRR
# Sequence of UniProt Q56UN5 (whole entry, looked up): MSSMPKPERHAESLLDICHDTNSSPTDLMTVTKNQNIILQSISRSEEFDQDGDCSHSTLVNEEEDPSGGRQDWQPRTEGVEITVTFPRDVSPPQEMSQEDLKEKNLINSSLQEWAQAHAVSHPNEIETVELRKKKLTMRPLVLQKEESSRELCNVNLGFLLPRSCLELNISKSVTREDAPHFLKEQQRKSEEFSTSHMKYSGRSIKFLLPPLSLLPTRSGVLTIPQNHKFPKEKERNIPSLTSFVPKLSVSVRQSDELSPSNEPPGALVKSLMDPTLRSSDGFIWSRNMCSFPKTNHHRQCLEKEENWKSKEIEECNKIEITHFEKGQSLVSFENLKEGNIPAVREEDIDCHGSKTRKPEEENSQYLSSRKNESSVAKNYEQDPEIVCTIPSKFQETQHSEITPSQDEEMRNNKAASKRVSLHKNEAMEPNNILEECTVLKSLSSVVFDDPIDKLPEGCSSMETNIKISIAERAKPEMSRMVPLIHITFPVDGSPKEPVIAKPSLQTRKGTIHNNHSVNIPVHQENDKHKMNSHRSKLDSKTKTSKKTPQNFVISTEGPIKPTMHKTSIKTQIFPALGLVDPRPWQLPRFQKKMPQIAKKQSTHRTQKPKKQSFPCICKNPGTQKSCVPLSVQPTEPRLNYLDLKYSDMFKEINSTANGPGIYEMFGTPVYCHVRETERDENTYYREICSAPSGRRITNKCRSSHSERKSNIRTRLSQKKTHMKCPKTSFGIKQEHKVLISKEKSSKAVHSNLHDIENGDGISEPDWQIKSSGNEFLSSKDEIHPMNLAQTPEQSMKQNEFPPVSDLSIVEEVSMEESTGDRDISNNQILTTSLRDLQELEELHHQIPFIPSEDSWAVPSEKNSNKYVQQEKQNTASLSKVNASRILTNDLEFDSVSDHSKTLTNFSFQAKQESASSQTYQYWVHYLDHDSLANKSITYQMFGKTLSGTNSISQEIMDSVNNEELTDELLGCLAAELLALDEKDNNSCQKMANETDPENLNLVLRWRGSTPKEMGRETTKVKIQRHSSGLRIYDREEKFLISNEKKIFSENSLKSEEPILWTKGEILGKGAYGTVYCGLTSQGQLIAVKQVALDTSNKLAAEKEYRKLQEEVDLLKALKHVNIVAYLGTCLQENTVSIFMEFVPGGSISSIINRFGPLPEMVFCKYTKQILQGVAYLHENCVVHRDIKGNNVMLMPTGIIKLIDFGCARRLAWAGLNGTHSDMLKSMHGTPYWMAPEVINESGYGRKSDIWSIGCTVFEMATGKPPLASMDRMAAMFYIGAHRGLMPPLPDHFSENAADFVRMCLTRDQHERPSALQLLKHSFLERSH
# Sequence of UniProt O00238 (whole entry, looked up): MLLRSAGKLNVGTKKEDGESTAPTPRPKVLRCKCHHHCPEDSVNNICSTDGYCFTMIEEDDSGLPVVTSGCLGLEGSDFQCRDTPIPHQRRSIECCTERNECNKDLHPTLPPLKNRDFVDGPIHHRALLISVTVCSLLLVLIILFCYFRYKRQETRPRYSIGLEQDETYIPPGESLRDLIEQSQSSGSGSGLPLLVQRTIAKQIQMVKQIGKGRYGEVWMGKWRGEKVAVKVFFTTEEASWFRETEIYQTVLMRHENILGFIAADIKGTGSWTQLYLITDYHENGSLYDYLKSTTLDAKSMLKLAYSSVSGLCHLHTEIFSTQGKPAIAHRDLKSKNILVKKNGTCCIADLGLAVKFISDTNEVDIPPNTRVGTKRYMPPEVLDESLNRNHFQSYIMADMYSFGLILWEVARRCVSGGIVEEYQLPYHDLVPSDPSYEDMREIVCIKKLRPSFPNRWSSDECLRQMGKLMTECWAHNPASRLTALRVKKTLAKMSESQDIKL
# Sequence of UniProt Q9HC98 (whole entry, looked up): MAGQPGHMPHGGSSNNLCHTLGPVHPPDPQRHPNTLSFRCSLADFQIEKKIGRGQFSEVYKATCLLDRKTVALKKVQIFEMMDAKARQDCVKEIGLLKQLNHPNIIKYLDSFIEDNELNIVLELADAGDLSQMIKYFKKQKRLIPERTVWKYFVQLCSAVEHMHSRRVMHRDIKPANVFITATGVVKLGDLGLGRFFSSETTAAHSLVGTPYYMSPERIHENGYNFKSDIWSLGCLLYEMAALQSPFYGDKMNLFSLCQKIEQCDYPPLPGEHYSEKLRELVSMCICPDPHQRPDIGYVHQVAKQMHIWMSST

# Block 1
# Compound: Nc1cccc(-c2cc3c(Oc4cccc(O)c4)ncnc3[nH]2)c1
# Observed: enzyme activity
# Action: inhibitor
# Tested at: 0.5 µM
# Baseline: control
target,remaining activity [%]
"Angiopoietin-1 receptor (TEK, Homo sapiens, UniProt Q02763)",60.7
"Mitogen-activated protein kinase 3 (MAPK3, Homo sapiens, UniProt P27361)",86.9
"Activin receptor type-1B (ACVR1B, Homo sapiens, UniProt P36896)",122
"Serine/threonine-protein kinase A-Raf (ARAF, Homo sapiens, UniProt P10398)",57.3
"Serine/threonine-protein kinase TBK1 (TBK1, Homo sapiens, UniProt Q9UHD2)",92.9
"Serine/threonine-protein kinase ULK2 (ULK2, Homo sapiens, UniProt Q8IYT8)",97.5
"Fibroblast growth factor receptor 1 (FGFR1, Homo sapiens, UniProt P11362)",39.3
"Tyrosine-protein kinase ABL2 (ABL2, Homo sapiens, UniProt P42684)",1.4
"MAP kinase-activated protein kinase 2 (MAPKAPK2, Homo sapiens, UniProt P49137)",108
"Tyrosine-protein kinase FRK (FRK, Homo sapiens, UniProt P42685)",6.95
"Fibroblast growth factor receptor 3 (FGFR3, Homo sapiens, UniProt P22607)",67.9
"Tyrosine-protein kinase Lck (LCK, Homo sapiens, UniProt P06239)",24.2
"Casein kinase I isoform gamma-2 (CSNK1G2, Homo sapiens, UniProt P78368)",84.9
"Mitogen-activated protein kinase kinase kinase 5 (MAP3K5, Homo sapiens, UniProt Q99683)",94.9
"Macrophage-stimulating protein receptor (MST1R, Homo sapiens, UniProt Q04912)",103
"Dual specificity mitogen-activated protein kinase kinase 2 (MAP2K2, Homo sapiens, UniProt P36507)",104
"Serine/threonine-protein kinase Nek6 (NEK6, Homo sapiens, UniProt Q9HC98)",90.2
"Ephrin type-A receptor 3 (EPHA3, Homo sapiens, UniProt P29320)",39.7
"Serine/threonine-protein kinase TAO2 (TAOK2, Homo sapiens, UniProt Q9UL54)",81.4
"Tyrosine-protein kinase Mer (MERTK, Homo sapiens, UniProt Q12866)",63.8
"Serine/threonine-protein kinase Nek1 (NEK1, Homo sapiens, UniProt Q96PY6)",92.3
"Tyrosine-protein kinase JAK3 (JAK3, Homo sapiens, UniProt P52333)",123
"Mitogen-activated protein kinase kinase kinase 14 (MAP3K14, Homo sapiens, UniProt Q99558)",69.6
"Rhodopsin kinase GRK7 (GRK7, Homo sapiens, UniProt Q8WTQ7)",102
"Casein kinase I isoform gamma-3 (CSNK1G3, Homo sapiens, UniProt Q9Y6M4)",92.6

# Block 2
# SMILES: CCOCCn1cc(C(=O)Nc2ccc(-n3nc(-c4cccnc4)cc3C(F)(F)F)cn2)ccc1=O
# Tested at: 1 µM
target,observed,technique,remaining binding [%]
"Epidermal growth factor receptor (EGFR, Homo sapiens, UniProt P00533, T790M)",cell-free assay,competition with immobilised ligand,100
"Maternal embryonic leucine zipper kinase (MELK, Homo sapiens, UniProt Q14680)",cell-free assay,competition with immobilised ligand,93
"Myosin light chain kinase 2, skeletal/cardiac muscle (MYLK2, Homo sapiens, UniProt Q9H1R3)",cell-free assay,competition with immobilised ligand,89
"AP2-associated protein kinase 1 (AAK1, Homo sapiens, UniProt Q2M2I8)",binding,,100
"Phosphatidylinositol 4,5-bisphosphate 3-kinase catalytic subunit alpha isoform (PIK3CA, Homo sapiens, UniProt P42336, Q546K)",cell-free assay,competition with immobilised ligand,95
"Bone morphogenetic protein receptor type-2 (BMPR2, Homo sapiens, UniProt Q13873)",cell-free assay,competition with immobilised ligand,100
"Serine/threonine-protein kinase 36 (STK36, Homo sapiens, UniProt Q9NRP7)",cell-free assay,competition with immobilised ligand,71
"Serine/threonine-protein kinase SBK1 (SBK1, Homo sapiens, UniProt Q52WX2)",cell-free assay,competition with immobilised ligand,91
"Bone morphogenetic protein receptor type-1B (BMPR1B, Homo sapiens, UniProt O00238)",cell-free assay,competition with immobilised ligand,71
"Mitogen-activated protein kinase kinase kinase 19 (MAP3K19, Homo sapiens, UniProt Q56UN5)",cell-free assay,competition with immobilised ligand,75
"Serine/threonine-protein kinase MRCK beta (CDC42BPB, Homo sapiens, UniProt Q9Y5S2)",cell-free assay,competition with immobilised ligand,89
"Serine/threonine-protein kinase 32C (STK32C, Homo sapiens, UniProt Q86UX6)",cell-free assay,competition with immobilised ligand,100
"Serine/threonine-protein kinase SIK2 (SIK2, Homo sapiens, UniProt Q9H0K1)",cell-free assay,competition with immobilised ligand,91
"Ribosomal protein S6 kinase alpha-4, N-terminal kinase domain (RPS6KA4, Homo sapiens, UniProt O75676)",cell-free assay,competition with immobilised ligand,100

# Block 3
# Cell line: HH
# Tested at: 2 µM
# Time: 48 h
# Baseline: untreated
SMILES,viability [%]
CC(C)(C#N)c1ccc(N2C(=O)OCc3cnc4ccc(-c5cnc6ccccc6c5)cc4c32)cc1,83.9
Clc1ccc(Nc2nnc(Cc3ccncc3)c3ccccc23)cc1,81.2
COc1cc(-c2cc(-c3ccc(N4CCNCC4)cc3)cnc2C)cc(OC)c1OC,99.6
Cn1sc(=O)n(Cc2ccccc2)c1=O,95.5
CC1(COc2ccc3c(c2)ncn3-c2ccc3cccc(N4CCC(N)CC4)c3n2)COC1,81.3
C[C@@H](Oc1cc(-c2cnn(C3CCNCC3)c2)cnc1N)c1c(Cl)ccc(F)c1Cl,58.6
Cn1cc(-c2ccc3nnc(C(F)(F)c4ccc5ncccc5c4)n3n2)cn1,105
N#Cc1c(Oc2ccc(F)c(NC(=O)Cc3cccc(C(F)(F)F)c3)c2)ccc2nc(NC(=O)C3CC3)sc12,95

# Block 4
# Organism: Sarcocystis neurona
# Observed: parasite growth
# Tested at: 10 µM
# Time: 96 h
# Setting: secondary screen
Compound,inhibition [%]
COCC1=C(C(=O)OC(C)OC(=O)OC(C)C)N2C(=O)[C@@H](NC(=O)/C(=N\OC)c3csc(N)n3)[C@H]2SC1 (stereo partly drawn),-28.2
CN(C)CCOC(c1ccc(Cl)cc1)c1ccccn1 (stereo not drawn),-19.5
Nc1c2c(nc3c1CCC3)CCCC2,-17.3
CNCCCN1c2ccccc2CCc2ccccc21,-23.9
CC[C@H](C)C(=O)O[C@H]1CCC=C2C=C[C@H](C)[C@H](CC[C@@H]3C[C@@H](O)CC(=O)O3)[C@H]21,-19.4
CN1[C@@H]2CC[C@H]1C[C@@H](OC(=O)c1c[nH]c3ccccc13)C2,-27.8
CN(C)[C@@H]1C(O)=C(C(=O)NCN2CCCC2)C(=O)[C@@]2(O)C(O)=C3C(=O)c4c(O)cccc4[C@@](C)(O)[C@H]3C[C@@H]12,-17.3
Nc1nc(N)nc(-c2cc(Cl)ccc2Cl)n1,17.3
CC(C)(C#N)c1cc(Cn2cncn2)cc(C(C)(C)C#N)c1,-45.4
C[C@]12C[C@H](O)[C@H]3[C@@H](CCC4=CC(=O)CC[C@@]43C)[C@@H]1CC[C@@H]2C(=O)CO,-5.5
